Results from different studies.
Each numbered part is a random draw from the data of one study; scales do not carry over between parts.

Series 1
Target: RING finger protein unkempt homolog, zinc fingers 1-6, GST-SBP tag (UNK, Homo sapiens, UniProt Q9C0B0, residues 30-357)
Method: RNA Bind-n-Seq
Form: RNA
Medium: in vitro
Concentration: not given
Setting: RNA with constant flanks, human-mouse chimeric sites, ends assumed
Baseline: input RNA pool
Reading: higher = stronger binding
Endpoint: bound/input enrichment
Shared flanks, not repeated: GGGAGUUCUACAGUCCGACGAUC … CAACAGAGGAUUGAGCAUCA
Residues (chain): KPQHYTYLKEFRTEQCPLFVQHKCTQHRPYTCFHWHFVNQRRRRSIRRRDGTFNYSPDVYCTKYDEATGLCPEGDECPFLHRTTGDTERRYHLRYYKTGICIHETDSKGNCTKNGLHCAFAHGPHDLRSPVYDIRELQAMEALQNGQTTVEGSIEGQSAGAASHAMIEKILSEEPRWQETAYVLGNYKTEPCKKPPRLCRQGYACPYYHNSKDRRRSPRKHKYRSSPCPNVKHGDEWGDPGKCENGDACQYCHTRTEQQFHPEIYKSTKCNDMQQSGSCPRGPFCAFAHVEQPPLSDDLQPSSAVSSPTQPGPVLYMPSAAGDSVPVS
AAAGAACCUCUCUCUGAUGAAGAUGAGGACAGUGAUGAUGAUGUUGAACCCAUUUCUGAAUUUCGAUUUGUGCCCAGUGAUAAAUCAGCAUUGGAGGCGAUGUUCACAGCAAUGUGUGAG: 0.212 ratio
AACUUCGUACAUAGAUUUCCCUUUGUAGCUGUUUCAAUUGGCUUCCUUGUGAAUAAAGAGAUGGAGUUUGGAAUUGUGUACAGCUGUGUGGAAGAUAAGAUGUACACUGCCAGAAAAGGG: 0.785 ratio
UUGCUACUGACUCCCUGGGUUAAAUUCCUGUGGGAAUCAUACAGGCAGUGUUUGGACCUUCUUCGAAACAAUUCUAGAGUAGAGCGCCUUUACCAUGAUAUCGCCCAACAAGCUUUCAAA: 0.177 ratio
GUACUGCAACAGCAGGGAAAACUGCAGGAAGCUCUGAUGCAUUAUAAGGAGGCUAUUCGAAUCAGUCCUACAUUUGCUGAUGCCUACUCUAAUAUGGGAAACACUCUAAAGGAGAUGCAG: 0.215 ratio
ACCAUUUUCGCGGUUCAGGCUUUGUGUGUAGUUCACUUACGGUAUUAAAUUAUUAUUGCCCUUAGUUUAUAAUAAGGAUAAUUGCAUUUAAAGAGGUGAUCACUGAAUACUCUGAAACUU: 1.05 ratio
GUGCCCUUCUCGCUGCUGCGGAGCCCGAGCUGGGAACACCCCUUCCGCUGGUACCCUGCACACAGCCGCCUCUUCGAUCAAGCUUUCGGGGUGCCCCGGUUGCCCGAUGAGUGGUCGCAG: 0.0617 ratio
AUGGAACAUUUUGAUGCGUCACUCAGUACCUAUUUCAAGGCCUUCCUGGGCCCCCGAGAUACUAGAGUCAAAGGAUGGUUCCUCCUGGACAAUUACAUCCCUACGUUUGUCUGUUCUGUU: 0.109 ratio
AAAGAACUACUGAGGCAAGGCAGCAAAUUUAGAAGAAACAUUUCAACAAUAUUGAUAGAGUUAGGAUUCCAAAUUAAAAAGAAAACUAAGACAUUAUACAUCAACAAAGCCAAUGUGUGG: 20.2 ratio
CACACACUCUUCUGCGGGACCCUCAUCCUGCAGGCCCGGGCCUAUGUGGGACCCCGUGUCCUGGCAGUGGUGACCCGCACAGGGUUCUGCACGGCAAAAGGGGGCCUGGUGAGCUCCAUC: 0.0744 ratio
AUCAAAUACUUUGGGGACAUCAUUAGUGUGGGACAGAGACUGUUGCAAGGAGCUCGGAUCUUAGGGAUUCCUGUUAUCAUAACGGAACAAUACCCCAAAGGACUUGGCAGCACCGUUCAA: 0.199 ratio
UACUACUAUGAUGGUGAUAUUGGAAAUUAUUAUUAUGGCCAGGGUCAUCCCAUGAAGCCUCAUAGAAUCCGGAUGACUCAUAACUUGCUGCUAAAUUAUGGCUUAUACCGAAAAAUGGAA: 0.2 ratio

Series 2
Target: TAR DNA-binding protein 43, full length, His tag (TARDBP, Homo sapiens, UniProt Q13148, residues 1-414)
Method: RNA Bind-n-Seq
Form: RNA
Medium: in vitro
Concentration: 20 nM
Setting: 6-mer, flanks averaged, single round
With: 150 mM LiCl
Baseline: input library
Reading: higher = stronger binding
Endpoint: 6-mer enrichment (R)
CCUAGU: 0.917
UAUAUC: 0.901
UUGUUC: 1.06
GAGGCA: 0.992
AGAAUG: 1.07
CCCGAC: 0.904
CAAGAU: 0.805
GUCUCA: 0.853
ACGUUU: 1.01
UAGUUG: 1.1
UGUGUU: 1.95
AUCAAC: 0.796
CCUGUG: 1.06
CGCUCU: 0.852
CUACCG: 0.835
UCACGU: 0.88
AAACAG: 0.809

Series 3
Target: Histone acetyltransferase KAT6A, winged helix 1, GST fusion (KAT6A, Homo sapiens, UniProt Q92794, residues 1-85)
Method: protein binding microarray
Form: double-stranded DNA, one strand shown
Medium: in vitro
Concentration: not given
Setting: 8-mer, flanks averaged, mean of 2 arrays, mostly near background
Baseline: not given
Reading: higher = stronger binding
Endpoint: E-score
Residues (chain): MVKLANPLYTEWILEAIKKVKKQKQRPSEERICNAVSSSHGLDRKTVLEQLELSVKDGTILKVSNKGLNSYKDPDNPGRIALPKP
GAGGAGAC: 0.12
CATATTGA: -0.257
ACAAGAGC: -0.111
CCGTAGGA: 0.199
CAATCTAA: -0.0626
CGGATTAA: 0.104
ACGTATCA: -0.0128
AAACAAGC: -0.129
ATTGCCGA: 0.188
CACTTAGA: -0.13
GCAAGCAC: -0.0168
AAGGGGGT: -0.0856
AGGGGGTG: -0.136
ATTAACAA: -0.114
CCCGCATC: 0.152
ATGAAGGG: -0.224
CCTGCAAA: -0.213
ACGGTCCG: 0.304
AACCTACG: 0.0343
CCAGTGCC: -0.0948

Series 4
Target: Prothrombin, mature alpha-thrombin (F2, Homo sapiens, UniProt P00734)
Method: aptamer microarray, sandwich
Form: DNA with 2'F-ANA
Medium: in vitro
Concentration: 200 nM
Setting: whole 15-mer aptamer, many near background
With: Cy3 exosite-II aptamer, 400 nM
Reading: higher = stronger binding
Endpoint: mean fluorescence intensity
Strand: GGTTGGTGTGGTTGG
2'F-ANA at 1 2 6 8 10 11 13 15: 71.3 a.u.
2'F-ANA at 3 4 6 8 13 14: 299 a.u.
2'F-ANA at 1 2 4 6 7 8 11 12 14: 64.4 a.u.
2'F-ANA at 10 11 14: 106 a.u.
2'F-ANA at 1 2 3 4 10 11 13 14 15: 51.7 a.u.
2'F-ANA at 2 5 6 9 10 11 13 14 15: 54.5 a.u.
2'F-ANA at 4 6 8 11 12 13: 341 a.u.
2'F-ANA at 1 2 3 5 8 10 12 14: 42.8 a.u.
2'F-ANA at 3 4 5 7 9 12 14: 53.9 a.u.
2'F-ANA at 2 5 7 9 10 14: 43.1 a.u.
2'F-ANA at 2 3 5 6 7 8 9 14 15: 52.8 a.u.
2'F-ANA at 4 7 8 9 10 12: 132 a.u.
2'F-ANA at 3 4 10 13 14: 211 a.u.
2'F-ANA at 3 4 7 8 12 13 15: 902 a.u.
2'F-ANA at 1 2 4 5 7 9 11 14: 79.8 a.u.
2'F-ANA at 1 2 4 5 6 9 10 12 14: 46.8 a.u.
2'F-ANA at 5 6 9 10 12 14 15: 48.4 a.u.
2'F-ANA at 1 7 9 11 12 13: 250 a.u.
2'F-ANA at 3 4 5 6 7 8 13 15: 70.4 a.u.
2'F-ANA at 1 2 3 5 7 10 14: 47.7 a.u.
2'F-ANA at 2 5 7 9 10 11 12 14: 45.5 a.u.
2'F-ANA at 1 2 5 7 9 12 13: 70.1 a.u.
2'F-ANA at 3 4 5 9 10 13 14: 49 a.u.
2'F-ANA at 6 8 12 13 14 15: 209 a.u.
2'F-ANA at 1 2 4 8 9 11 13 14: 49.9 a.u.

Series 5
Target: RNA binding protein fox-1 homolog 2, RRM domain, GST-SBP tag (RBFOX2, Homo sapiens, UniProt O43251-10, residues 100-194)
Method: RNA Bind-n-Seq
Form: RNA
Medium: in vitro
Concentration: 365 nM
Setting: natural RNA segment, single round, ends assumed
Baseline: no-protein control
Reading: higher = stronger binding
Endpoint: RBNS enrichment (R)
Shared flanks, not repeated: GGGAGUUCUACAGUCCGACGAUC … UGGAAUUCUCGGGUGCCAA
Target sequence (chain): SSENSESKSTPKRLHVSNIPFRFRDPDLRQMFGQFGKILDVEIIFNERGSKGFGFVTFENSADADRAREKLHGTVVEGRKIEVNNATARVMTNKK
UGACUCUUGAUGGAAAGACUUAAGAAGAUCAAGGUCUCACCAUUUGUCCUCAAUUCGUGUGACCAUAAGAUACUGAUAGCAUUGAGUCUUGAAAUGAUUUAAUAAUAUGA: 0.341
GCCUUCUUUCCCUUGGGGUCUCUGGAAGAUCCUAGCAGACUUUGCCUGUGGGCCUGCUCAGCAUGACUUCCAGGACCCCACUGUUCUGGACUGACAUCCCAGGUGUCACA: 4.7
UGUUUGUUUGUUUGUUUCCUUAAUCUGGCUCAUUUGAAAUUUCUUCUCCCUCUCAACCAUCCCACUAAGUUAUAGCCAAGAAGGGAAGGAGACACGGGGAUUUGGGGUUC: 0.762
CCCAUCCCUGGAUAUAUUGCCUUUUCAGCAGCCUCGGGUUCAGUGUGCUUGGGGUCAGGAGUGCCAGGUUCCCAAGAGCAGCGUAAAACAUCCCUGUACCCCUUGACAGU: 0.488
AAGGGGGGCAGUCAGAACAGCUGUUCCCCACUCCGUGGUUCUCAAAAUCAUAAACCAUGGCUACUCUUGGGAACCACCCGGCCAUGUGGUCGCCAAGUAGAGCAAGCCCC: 0.263
AUGUUCAGAUUCCUUUGAGAAUUUCAAAUGAAAAAUAAUCUUUCUGUAUGUGGUGUCUAACAUCUACAAGGUGGGGGCUGGAGAAGUGGCUUGGUGCUCAAAGGCACUUG: 0.62
GUAGAAAGUCUCCCUGGAAGCUGACCCACAAAGCCCUGUGACCUGGCCCCUCCUCUGAAGGCCAGCAAGAGGUGGAGCAAGGAUCAACUGCUGUUCUGGAGUAGGGUUCC: 0.277
GAUUGGCAAGGCUCCUAUGGAGCUCCCAGAAGCCUCAGCUAGGAAAAUGAGCCCUCACUUCAGCCUGUAUCUAGCACGUGGGGCAGCUGCCUAGCUGACUGCUGCACAAG: 1.38
AUAGUUCGGGUCGGGGCCUUGGGUGGUCCUGCAUGGCCCGGGACUCAUCUCACGGACCCUCCGUUCUGCAUUAAGCCCCAGGUUCUCUUCUGGCUUUGAAAGGGCCCGAG: 0.907
GCUUUCUUCAUUCAGUGUGCCAUCUUUGAUCUUACAGCGGUGCCUGUGGAAGGACAGGGUGAGAAAAGCUCGGAGAGAGAAAGAAUCGAGGGCAGGAGAGAGUGGACAGC: 0.867
UGUGUGGUGGCCCUGGCACUGCAGAGACUGGUCCGGGCUGUCAGGAGGCGGGAGGGGGCAGCGCUGGGCCUCGUGUCGCUUGUCGUCGUCCGUCCUGUGGGCGCUCUGCC: 0.482
UCUCAUGAAUUAGAGAGUUCAUCUUCUGAGGUCAAUAAAGAAGAGGCAAAAACACAGUUCCUUACUUUGCAUUUAGUAAAAACAAGAAAAAGUGUUAGUGAGGGUUAAGC: 1.7

Repeated from above (series 2):
CCUAGU: 0.917
UAUAUC: 0.901
UUGUUC: 1.06
GAGGCA: 0.992
AGAAUG: 1.07
CCCGAC: 0.904
